# Results of several laboratories.
# Each numbered part is a random draw from the data of one study; scales do not carry over between parts. Positions count from the first letter of the parent shown.
# Chain of UniProt Q9H2X6 (whole entry, looked up): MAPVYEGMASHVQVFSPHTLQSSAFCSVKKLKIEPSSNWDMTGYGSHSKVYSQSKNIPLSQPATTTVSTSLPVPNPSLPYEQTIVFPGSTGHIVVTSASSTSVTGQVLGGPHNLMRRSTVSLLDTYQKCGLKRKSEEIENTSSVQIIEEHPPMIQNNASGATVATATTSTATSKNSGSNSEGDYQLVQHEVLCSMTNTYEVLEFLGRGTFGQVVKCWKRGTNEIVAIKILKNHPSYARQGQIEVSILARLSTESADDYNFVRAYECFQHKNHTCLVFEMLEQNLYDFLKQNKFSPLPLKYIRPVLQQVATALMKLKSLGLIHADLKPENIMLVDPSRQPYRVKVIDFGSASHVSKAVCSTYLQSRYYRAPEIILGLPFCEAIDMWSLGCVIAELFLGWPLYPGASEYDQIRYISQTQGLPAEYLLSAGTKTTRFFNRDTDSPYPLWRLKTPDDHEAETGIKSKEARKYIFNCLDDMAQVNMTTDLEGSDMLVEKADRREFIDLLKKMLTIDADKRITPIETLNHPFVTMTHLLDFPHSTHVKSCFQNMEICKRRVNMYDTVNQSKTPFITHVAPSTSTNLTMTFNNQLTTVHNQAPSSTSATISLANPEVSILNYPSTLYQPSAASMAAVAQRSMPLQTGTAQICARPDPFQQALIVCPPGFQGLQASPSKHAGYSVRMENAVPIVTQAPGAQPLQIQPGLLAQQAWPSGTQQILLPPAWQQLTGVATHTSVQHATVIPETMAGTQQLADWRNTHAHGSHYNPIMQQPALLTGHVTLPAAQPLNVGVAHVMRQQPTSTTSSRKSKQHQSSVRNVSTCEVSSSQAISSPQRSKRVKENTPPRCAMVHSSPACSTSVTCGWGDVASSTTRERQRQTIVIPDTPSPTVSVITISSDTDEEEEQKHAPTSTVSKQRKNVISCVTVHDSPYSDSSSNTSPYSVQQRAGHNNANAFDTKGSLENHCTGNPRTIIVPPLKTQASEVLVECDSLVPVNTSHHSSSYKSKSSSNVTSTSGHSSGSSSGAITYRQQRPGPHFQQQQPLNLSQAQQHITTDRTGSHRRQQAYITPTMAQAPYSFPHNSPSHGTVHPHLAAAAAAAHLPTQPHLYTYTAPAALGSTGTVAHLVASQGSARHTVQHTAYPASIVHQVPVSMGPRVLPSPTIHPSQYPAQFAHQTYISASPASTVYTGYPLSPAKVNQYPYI
# Chain of UniProt Q9BYP7 (whole entry, looked up): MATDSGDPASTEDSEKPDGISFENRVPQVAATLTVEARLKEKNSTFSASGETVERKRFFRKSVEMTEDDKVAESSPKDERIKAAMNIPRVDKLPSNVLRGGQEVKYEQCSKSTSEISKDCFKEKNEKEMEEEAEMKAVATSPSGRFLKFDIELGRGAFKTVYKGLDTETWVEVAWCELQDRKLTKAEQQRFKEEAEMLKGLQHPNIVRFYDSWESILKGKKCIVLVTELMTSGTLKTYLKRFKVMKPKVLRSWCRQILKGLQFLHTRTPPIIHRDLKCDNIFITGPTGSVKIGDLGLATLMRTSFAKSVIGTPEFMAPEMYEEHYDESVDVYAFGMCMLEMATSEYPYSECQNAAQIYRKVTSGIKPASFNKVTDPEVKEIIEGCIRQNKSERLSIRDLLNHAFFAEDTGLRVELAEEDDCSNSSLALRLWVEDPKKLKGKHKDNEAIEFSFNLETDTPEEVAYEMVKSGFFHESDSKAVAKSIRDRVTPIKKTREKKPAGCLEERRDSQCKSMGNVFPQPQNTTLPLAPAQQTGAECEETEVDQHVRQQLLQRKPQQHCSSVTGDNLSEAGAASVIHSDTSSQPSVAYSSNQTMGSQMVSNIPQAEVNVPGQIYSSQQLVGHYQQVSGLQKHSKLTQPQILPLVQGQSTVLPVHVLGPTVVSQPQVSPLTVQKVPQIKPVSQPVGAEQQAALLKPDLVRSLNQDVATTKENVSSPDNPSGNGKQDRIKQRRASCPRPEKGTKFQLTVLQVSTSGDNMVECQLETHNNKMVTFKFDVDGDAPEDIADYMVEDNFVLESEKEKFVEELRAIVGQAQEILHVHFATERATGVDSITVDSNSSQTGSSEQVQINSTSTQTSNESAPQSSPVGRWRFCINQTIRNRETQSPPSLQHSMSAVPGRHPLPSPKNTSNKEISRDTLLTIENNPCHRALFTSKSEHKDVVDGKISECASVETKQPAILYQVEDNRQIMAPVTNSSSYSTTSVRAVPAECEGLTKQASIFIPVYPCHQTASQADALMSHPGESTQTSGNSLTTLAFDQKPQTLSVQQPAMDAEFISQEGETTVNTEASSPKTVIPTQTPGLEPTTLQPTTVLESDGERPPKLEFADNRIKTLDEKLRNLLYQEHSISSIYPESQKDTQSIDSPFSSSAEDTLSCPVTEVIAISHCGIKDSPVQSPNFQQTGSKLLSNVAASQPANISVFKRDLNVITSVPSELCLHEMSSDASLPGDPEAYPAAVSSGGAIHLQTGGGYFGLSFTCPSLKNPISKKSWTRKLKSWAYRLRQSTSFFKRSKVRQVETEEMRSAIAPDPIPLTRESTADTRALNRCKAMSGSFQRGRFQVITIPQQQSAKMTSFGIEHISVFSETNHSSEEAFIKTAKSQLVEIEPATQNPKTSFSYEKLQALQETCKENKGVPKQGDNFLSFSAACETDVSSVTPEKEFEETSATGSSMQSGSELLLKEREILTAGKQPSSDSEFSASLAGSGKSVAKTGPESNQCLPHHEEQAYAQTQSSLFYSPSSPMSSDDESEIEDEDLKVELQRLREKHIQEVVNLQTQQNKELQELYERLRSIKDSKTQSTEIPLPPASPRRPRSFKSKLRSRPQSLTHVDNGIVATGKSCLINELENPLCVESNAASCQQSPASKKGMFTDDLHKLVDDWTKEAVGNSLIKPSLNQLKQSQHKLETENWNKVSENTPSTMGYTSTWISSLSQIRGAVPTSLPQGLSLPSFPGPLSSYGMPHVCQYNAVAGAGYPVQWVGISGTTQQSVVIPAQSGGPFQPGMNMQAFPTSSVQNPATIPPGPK
# Chain of UniProt Q9NSY1 (whole entry, looked up): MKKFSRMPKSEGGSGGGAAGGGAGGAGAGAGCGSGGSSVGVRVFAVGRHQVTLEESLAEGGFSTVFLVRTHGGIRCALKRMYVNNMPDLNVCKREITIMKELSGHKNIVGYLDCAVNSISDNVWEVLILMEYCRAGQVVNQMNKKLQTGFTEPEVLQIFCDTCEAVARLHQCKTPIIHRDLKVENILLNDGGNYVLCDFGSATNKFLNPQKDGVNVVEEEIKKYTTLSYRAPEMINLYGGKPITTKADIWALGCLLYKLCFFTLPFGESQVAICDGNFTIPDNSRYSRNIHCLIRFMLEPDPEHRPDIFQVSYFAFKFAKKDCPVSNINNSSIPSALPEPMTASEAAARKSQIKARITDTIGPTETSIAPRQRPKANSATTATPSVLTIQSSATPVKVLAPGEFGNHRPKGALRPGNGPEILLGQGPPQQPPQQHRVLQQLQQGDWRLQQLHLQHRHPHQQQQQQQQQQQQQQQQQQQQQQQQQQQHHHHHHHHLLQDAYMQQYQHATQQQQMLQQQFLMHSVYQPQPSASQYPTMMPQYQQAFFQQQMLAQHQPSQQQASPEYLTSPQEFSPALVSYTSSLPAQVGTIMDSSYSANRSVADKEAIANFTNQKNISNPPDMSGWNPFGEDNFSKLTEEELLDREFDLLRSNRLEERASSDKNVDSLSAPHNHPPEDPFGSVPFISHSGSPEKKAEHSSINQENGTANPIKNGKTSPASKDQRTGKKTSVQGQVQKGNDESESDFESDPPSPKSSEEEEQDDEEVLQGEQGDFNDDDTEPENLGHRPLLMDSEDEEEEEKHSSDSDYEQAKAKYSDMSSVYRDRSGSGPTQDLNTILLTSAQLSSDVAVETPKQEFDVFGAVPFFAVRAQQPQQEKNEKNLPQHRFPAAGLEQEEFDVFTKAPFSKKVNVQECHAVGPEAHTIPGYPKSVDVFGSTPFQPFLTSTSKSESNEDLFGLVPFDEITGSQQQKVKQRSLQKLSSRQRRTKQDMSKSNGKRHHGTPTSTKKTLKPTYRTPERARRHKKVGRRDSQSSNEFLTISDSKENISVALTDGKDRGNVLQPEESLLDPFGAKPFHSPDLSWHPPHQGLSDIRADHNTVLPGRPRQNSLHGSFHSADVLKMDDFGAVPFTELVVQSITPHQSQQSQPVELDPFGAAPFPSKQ
# Chain of UniProt Q00534 (whole entry, looked up): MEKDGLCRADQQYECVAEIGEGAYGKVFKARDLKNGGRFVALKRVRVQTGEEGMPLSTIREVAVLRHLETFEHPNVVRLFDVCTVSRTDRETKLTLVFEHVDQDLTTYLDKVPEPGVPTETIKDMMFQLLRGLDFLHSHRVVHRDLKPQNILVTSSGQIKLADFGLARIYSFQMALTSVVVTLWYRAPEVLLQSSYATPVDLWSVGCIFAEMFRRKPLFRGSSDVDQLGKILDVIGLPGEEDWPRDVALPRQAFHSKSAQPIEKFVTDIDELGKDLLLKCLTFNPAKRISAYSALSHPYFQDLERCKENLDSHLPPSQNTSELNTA

# Block 1 — target: ATF3, bZIP domain (human); method: DHFR protein complementation; medium: yeast; relative to: wild-type JUN-FOS pair; reading: higher = stronger binding
# Notes: single substitutions, most at no-binding floor
# Parent: JUN, bZIP domain (human); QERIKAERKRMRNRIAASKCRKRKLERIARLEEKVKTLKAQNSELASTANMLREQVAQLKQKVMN; partner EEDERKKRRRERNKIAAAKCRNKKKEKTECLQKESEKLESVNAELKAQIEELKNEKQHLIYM
Change,binding fitness [natural log]
K39C,-0.575
T37M,0.102
K36G,-0.282
M51Y,-0.253
E44L,-0.169
I28N,-0.266
E54D,-0.273
E32W,-0.681

# Block 2 — method: RNA Bind-n-Seq; molecule type: RNA; medium: in vitro; concentration: 15 pmol; notes: 4-mer, random 30-nt RNA, single round; added: 3 µM RocA, 2 mM AMP-PNP; relative to: mean of 4-mers; reading: higher = stronger binding
# Target: Eukaryotic initiation factor 4A-I (EIF4A1, Homo sapiens, UniProt P60842, residues 1-406, full length assumed)
# Chain of UniProt P60842 (whole entry, looked up): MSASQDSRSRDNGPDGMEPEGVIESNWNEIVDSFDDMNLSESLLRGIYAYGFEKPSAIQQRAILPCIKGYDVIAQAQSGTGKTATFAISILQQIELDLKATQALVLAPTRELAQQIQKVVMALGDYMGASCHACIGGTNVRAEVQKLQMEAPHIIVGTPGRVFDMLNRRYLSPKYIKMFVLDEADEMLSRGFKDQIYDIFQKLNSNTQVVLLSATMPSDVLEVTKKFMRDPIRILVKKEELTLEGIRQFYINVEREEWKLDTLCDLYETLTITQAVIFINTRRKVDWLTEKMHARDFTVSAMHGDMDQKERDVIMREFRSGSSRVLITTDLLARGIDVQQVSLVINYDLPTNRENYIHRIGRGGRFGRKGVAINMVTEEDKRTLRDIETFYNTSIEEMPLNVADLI
Oligonucleotide,4-mer enrichment Z-score
CGUG,0.538
AGGA,1.53
CUUC,-1.35
AAUC,-0.675
CUCC,-1.3
CGAU,0.00292
UUCG,-0.517
GAAA,2.47

# Block 3 — Structure (SMILES): O=C(c1ccccc1)c1ccc(N2CCOCC2)cc1O; observed: enzyme activity; action: inhibitor; concentration: 0.5 µM; relative to: control
target,remaining activity
"SRMS (Homo sapiens, UniProt Q9H3Y6)",93.9%
"Cyclin-dependent kinase 1, with cyclin B (CDK1, Homo sapiens, UniProt P06493)",92.3%
"Cyclin-dependent kinase 6, with cyclin D3 (CDK6, Homo sapiens, UniProt Q00534)",97.7%
"STK17A (Homo sapiens, UniProt Q9UEE5)",97.9%
"HIPK2 (Homo sapiens, UniProt Q9H2X6)",105%
"WNK3 (Homo sapiens, UniProt Q9BYP7)",104%
"RPS6KA6 (Homo sapiens, UniProt Q9UK32)",101%
"MAP4K4 (Homo sapiens, UniProt O95819)",86.4%
"BLK (Homo sapiens, UniProt P51451)",102%
"DYRK3 (Homo sapiens, UniProt O43781)",98.9%
"HIPK4 (Homo sapiens, UniProt Q8NE63)",99.5%

# Block 4 — concentration: 1 µM
# Compound: NS(=O)(=O)c1cc(NC(=O)C2(c3ccccc3Cl)CC2)ccc1Oc1cccc(Cl)c1
target,observed,method,remaining binding
"AAK1 (Homo sapiens, UniProt Q2M2I8)",binding,,100%
"BMP2K (Homo sapiens, UniProt Q9NSY1)",cell-free assay,competition with immobilised ligand,74%
"FGFR1 (Homo sapiens, UniProt P11362)",cell-free assay,competition with immobilised ligand,100%
"EGFR (Homo sapiens, UniProt P00533, del746-750)",cell-free assay,competition with immobilised ligand,46%
"MAP3K6 (Homo sapiens, UniProt O95382)",cell-free assay,competition with immobilised ligand,100%
"AKT2 (Homo sapiens, UniProt P31751)",cell-free assay,competition with immobilised ligand,100%

# A few entries again (block 3):
target,remaining activity
"HIPK4 (Homo sapiens, UniProt Q8NE63)",99.5%
"DYRK3 (Homo sapiens, UniProt O43781)",98.9%
"Cyclin-dependent kinase 6, with cyclin D3 (CDK6, Homo sapiens, UniProt Q00534)",97.7%
"MAP4K4 (Homo sapiens, UniProt O95819)",86.4%
